Measured values from different studies.
Numbered parts are unrelated; each lists some results of a single study. Several values in a cell are separate wells, animals, samples, runs or records.
UniProt Q6PHR2, sequence (whole entry, looked up): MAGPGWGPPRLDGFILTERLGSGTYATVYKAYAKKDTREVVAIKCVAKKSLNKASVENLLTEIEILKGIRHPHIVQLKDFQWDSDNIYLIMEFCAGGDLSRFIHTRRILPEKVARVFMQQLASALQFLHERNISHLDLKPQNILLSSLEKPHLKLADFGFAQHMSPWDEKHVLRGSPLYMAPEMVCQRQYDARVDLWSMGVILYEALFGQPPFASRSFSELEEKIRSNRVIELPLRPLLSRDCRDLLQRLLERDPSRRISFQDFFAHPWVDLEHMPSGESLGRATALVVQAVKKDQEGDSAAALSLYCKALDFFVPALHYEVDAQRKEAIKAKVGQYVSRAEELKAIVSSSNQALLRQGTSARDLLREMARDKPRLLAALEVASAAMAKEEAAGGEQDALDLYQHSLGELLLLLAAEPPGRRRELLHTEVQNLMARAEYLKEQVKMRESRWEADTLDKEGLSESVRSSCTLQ
UniProt P42336, sequence (whole entry, unmodified, looked up): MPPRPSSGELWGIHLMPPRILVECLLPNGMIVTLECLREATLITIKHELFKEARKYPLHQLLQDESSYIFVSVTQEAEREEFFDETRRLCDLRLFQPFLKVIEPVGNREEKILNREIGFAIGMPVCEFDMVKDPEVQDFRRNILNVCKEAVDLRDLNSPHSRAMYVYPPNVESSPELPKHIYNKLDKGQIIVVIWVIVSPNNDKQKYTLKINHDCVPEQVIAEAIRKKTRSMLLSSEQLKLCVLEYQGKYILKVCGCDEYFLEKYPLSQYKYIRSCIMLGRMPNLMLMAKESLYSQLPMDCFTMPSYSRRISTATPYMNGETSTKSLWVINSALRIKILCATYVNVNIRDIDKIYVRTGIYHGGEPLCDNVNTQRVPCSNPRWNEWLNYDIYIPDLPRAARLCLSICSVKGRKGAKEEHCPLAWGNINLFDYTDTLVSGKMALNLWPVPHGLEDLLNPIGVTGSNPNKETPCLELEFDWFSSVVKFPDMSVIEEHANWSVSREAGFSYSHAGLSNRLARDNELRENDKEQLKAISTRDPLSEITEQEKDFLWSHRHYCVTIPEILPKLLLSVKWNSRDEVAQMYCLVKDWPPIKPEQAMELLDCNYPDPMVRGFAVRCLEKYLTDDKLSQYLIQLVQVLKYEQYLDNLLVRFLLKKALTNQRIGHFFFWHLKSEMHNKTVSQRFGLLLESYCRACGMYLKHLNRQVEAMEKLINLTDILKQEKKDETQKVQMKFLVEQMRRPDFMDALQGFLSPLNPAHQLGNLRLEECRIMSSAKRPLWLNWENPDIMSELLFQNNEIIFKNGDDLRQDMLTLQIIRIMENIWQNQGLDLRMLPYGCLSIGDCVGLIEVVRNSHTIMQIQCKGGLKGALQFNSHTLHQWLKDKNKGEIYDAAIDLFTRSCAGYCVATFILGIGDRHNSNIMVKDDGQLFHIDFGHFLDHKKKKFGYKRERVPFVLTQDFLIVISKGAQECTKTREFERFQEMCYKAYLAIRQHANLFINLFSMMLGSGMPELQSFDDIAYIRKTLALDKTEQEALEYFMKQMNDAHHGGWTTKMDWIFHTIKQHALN
UniProt Q9Y3S1, sequence (whole entry, looked up): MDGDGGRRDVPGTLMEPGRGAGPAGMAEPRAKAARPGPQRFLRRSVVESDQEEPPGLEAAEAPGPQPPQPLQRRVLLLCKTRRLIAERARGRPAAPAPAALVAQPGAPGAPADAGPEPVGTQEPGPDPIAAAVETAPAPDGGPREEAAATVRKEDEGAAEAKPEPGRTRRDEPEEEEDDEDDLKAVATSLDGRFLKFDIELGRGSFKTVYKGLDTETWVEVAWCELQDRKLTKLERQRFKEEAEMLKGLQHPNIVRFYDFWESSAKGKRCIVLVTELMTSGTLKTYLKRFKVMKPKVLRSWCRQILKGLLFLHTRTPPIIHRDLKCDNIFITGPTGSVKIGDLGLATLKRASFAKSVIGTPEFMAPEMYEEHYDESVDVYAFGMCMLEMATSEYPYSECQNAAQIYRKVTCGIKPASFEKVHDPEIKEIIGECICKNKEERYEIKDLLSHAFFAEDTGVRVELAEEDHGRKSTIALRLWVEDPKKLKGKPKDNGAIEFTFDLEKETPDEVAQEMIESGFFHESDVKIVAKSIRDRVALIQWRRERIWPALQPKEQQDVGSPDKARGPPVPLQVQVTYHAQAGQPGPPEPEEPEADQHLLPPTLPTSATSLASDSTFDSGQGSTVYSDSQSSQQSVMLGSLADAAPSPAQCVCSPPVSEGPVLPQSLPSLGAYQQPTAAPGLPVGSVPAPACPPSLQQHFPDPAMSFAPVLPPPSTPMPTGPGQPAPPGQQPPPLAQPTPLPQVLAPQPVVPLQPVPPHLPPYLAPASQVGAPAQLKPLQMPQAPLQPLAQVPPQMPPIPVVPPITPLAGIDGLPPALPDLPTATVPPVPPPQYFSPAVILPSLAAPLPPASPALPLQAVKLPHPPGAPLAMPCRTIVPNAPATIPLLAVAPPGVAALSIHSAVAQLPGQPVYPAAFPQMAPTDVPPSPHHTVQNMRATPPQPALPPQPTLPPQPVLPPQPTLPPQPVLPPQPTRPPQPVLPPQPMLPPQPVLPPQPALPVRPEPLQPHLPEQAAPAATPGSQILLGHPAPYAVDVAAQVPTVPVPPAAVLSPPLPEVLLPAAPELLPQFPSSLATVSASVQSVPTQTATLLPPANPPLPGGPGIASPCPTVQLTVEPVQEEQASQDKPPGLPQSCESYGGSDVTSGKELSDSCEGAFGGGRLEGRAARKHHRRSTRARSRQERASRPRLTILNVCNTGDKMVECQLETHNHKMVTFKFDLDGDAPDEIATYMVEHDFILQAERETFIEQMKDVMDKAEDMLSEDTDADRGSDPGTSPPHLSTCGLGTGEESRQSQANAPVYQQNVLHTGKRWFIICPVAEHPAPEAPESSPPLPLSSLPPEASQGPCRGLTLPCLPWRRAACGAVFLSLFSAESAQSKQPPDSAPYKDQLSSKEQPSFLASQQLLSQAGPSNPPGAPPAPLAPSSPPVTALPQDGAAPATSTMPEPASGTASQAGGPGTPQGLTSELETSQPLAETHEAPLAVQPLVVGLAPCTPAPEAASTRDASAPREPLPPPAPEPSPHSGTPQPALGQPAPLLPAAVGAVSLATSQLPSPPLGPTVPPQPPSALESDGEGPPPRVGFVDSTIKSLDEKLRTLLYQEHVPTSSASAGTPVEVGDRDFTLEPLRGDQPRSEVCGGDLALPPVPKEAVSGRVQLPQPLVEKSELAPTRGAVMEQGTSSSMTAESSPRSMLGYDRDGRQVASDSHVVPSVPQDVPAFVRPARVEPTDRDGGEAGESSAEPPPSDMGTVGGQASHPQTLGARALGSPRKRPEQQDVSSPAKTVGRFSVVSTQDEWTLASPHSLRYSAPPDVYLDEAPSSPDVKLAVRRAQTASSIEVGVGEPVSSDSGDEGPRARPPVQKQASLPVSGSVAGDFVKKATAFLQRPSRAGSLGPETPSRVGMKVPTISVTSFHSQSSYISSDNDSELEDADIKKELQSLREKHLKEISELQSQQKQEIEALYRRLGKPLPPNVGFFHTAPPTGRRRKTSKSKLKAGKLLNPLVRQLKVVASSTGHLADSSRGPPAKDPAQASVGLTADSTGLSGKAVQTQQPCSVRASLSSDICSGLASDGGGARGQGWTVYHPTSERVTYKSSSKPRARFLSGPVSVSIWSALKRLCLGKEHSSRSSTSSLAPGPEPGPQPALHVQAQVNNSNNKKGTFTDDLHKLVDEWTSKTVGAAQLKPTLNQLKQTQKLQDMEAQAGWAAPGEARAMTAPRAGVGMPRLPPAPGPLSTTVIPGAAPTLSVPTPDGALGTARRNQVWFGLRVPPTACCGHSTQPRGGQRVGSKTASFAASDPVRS
UniProt P35590, sequence (whole entry, looked up): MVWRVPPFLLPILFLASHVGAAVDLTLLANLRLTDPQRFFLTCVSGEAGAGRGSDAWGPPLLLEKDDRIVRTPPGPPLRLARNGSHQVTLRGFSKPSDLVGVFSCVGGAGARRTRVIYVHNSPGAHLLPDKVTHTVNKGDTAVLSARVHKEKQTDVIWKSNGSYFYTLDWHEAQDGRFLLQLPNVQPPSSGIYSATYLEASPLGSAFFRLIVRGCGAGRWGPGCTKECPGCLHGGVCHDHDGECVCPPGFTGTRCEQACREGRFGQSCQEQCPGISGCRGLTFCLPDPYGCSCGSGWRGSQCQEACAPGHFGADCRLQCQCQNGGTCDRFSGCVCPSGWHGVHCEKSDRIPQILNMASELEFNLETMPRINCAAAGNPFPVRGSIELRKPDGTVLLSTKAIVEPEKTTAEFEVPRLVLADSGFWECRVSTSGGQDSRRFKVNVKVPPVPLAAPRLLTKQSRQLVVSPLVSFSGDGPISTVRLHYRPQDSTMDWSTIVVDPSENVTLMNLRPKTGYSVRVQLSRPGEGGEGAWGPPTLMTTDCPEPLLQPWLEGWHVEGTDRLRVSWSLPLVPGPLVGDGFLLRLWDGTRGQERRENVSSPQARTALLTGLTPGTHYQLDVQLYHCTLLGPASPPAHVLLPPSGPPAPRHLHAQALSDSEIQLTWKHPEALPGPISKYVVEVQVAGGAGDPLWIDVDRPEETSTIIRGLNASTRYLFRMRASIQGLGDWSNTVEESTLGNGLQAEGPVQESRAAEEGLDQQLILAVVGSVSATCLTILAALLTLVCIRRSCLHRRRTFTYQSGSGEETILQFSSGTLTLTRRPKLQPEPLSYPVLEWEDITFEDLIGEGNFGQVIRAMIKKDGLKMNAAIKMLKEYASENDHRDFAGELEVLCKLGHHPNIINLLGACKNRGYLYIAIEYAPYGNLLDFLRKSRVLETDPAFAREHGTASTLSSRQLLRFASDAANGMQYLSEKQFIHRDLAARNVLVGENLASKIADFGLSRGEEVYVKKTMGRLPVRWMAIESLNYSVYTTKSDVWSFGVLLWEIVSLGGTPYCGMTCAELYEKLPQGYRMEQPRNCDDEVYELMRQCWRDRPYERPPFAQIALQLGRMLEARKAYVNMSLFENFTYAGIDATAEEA

Series 1
SMILES: CC#CC(=O)N1CCC[C@H]1c1nc(-c2ccc(C(=O)Nc3ccccn3)cc2)c2c(N)nccn12
Read-out: enzyme activity
Mode: inhibitor
Concentration: 1 µM
| target | inhibition [%] |
| --- | --- |
| Tyrosine-protein kinase JAK2, JH1 (JAK2, Homo sapiens, UniProt O60674) | 5 |
| Serine/threonine-protein kinase STK11 (STK11, Homo sapiens, UniProt Q15831) | 21 |
| Serine/threonine-protein kinase Nek9 (NEK9, Homo sapiens, UniProt Q8TD19) | 0 |
| Serine/threonine-protein kinase ULK3 (ULK3, Homo sapiens, UniProt Q6PHR2) | 12 |
| Phosphatidylinositol 4,5-bisphosphate 3-kinase catalytic subunit alpha isoform (PIK3CA, Homo sapiens, UniProt P42336, E545K) | 33 |
| Serine/threonine-protein kinase MAK (MAK, Homo sapiens, UniProt P20794) | 0 |
| Serine/threonine-protein kinase Nek3 (NEK3, Homo sapiens, UniProt P51956) | 40 |

Series 2
SMILES: COc1ccc2[nH]c3c4[nH]c5ccc(OC)cc5c4c4c(c3c2c1)C(=O)NC4=O
Technique: competitive binding panel
Concentration: 1 µM
Relative to: vehicle
| target | refers to | remaining binding [%] |
| --- | --- | --- |
| Serine/threonine-protein kinase WNK2 (WNK2, Homo sapiens, UniProt Q9Y3S1) |  | 66 |
| Ephrin type-A receptor 7 (EPHA7, Homo sapiens, UniProt Q15375) |  | 86 |
| Dual specificity protein kinase CLK2 (CLK2, Homo sapiens, UniProt P49760) |  | 56 |
| Protein kinase C eta type (PRKCH, Homo sapiens, UniProt P24723) |  | 35 |
| Serine/threonine-protein kinase 25 (STK25, Homo sapiens, UniProt O00506) | YSK1 | 89 |
| Tyrosine-protein kinase receptor Tie-1 (TIE1, Homo sapiens, UniProt P35590) |  | 100 |
| Cyclin-dependent kinase 11A (CDK11A, Homo sapiens, UniProt Q9UQ88) | CDC2L2 | 91 |

Series 3
Cell line: HaCaT
Concentration: 100 µM
Time: 36 h
| SMILES | viability [%] |
| --- | --- |
| CN(C)CCc1c[nH]c2ccc(Cn3cncn3)cc12 | 94.6 |
| Nc1ccn([C@@H]2O[C@H](CO)[C@@H](O)[C@@H]2O)c(=O)n1 | 37.1 |
| CC(C)(Oc1ccc(C(=O)c2ccc(Cl)cc2)cc1)C(=O)O | 90 |
| COc1nc2ccc(Br)cc2cc1[C@@H](c1ccccc1)[C@@](O)(CCN(C)C)c1cccc2ccccc12 | 81.5 |
| CN(Cc1ccc(C(C)(C)C)cc1)Cc1cccc2ccccc12 | 30.4 |
| COc1cc(C(C)=O)ccc1OCCCN1CCC(c2noc3cc(F)ccc23)CC1 | 89.1 |
| CN(C)/N=N/c1[nH]cnc1C(N)=O | 73.4 |
| CN1CCN(CCCN2c3ccccc3Sc3ccc(C(F)(F)F)cc32)CC1 | 5.92 |

Series 4
Host: human
Medium: microsomes or S9
Concentration: 2 µM
Time: 0.5 h
| Structure (SMILES) | remaining compound |
| --- | --- |
| Cc1ccsc1C1Nc2ccc3ncccc3c2C2=C1C(=O)CCC2 (stereo not drawn) | 45.7% |
| COc1ccc(C2N=C(O)c3ccccc3O2)c(OC)c1OC (stereo not drawn) | 4.3% |
| CC(C)=CCn1c(COc2ccc(Br)cc2Cl)noc1=O | 78.5% |
| Cc1cc(C)cc(C(=O)c2c(C(C)C)c(=O)[nH]c(=O)n2Cc2cc(F)nc(F)c2)c1 | 46.7% |
| Cc1cc(C)cc(C(=O)c2c(C(C)C)c(=O)[nH]c(=O)n2Cc2ccnc(N)c2)c1 | 15.2% |
| CC1CCNC2CN(c3nc4c(cc3F)c(=O)c(C(=O)O)cn4-c3ncc(F)cc3F)CC12 (stereo not drawn) | 99.1% |

Series 5
SMILES: C[C@@H]1CN(c2cc(-c3nn(C)c4ccc(OC5(C)CC5)cc34)ncn2)C[C@H](C)O1
Read-out: cell-free assay
Technique: competition with immobilised ligand
Concentration: 1 µM
| target | remaining binding [%] |
| --- | --- |
| Serine/threonine-protein kinase RIO2 (RIOK2, Homo sapiens, UniProt Q9BVS4) | 100 |
| Cyclin-dependent kinase 4, with cyclin D1 (CDK4, Homo sapiens, UniProt P11802) | 71 |
| Tyrosine-protein kinase receptor Tie-1 (TIE1, Homo sapiens, UniProt P35590) | 92 |
| Serine/threonine-protein kinase ULK3 (ULK3, Homo sapiens, UniProt Q6PHR2) | 67 |
| Phosphatidylinositol 4,5-bisphosphate 3-kinase catalytic subunit alpha isoform (PIK3CA, Homo sapiens, UniProt P42336) | 100 |
| NUAK family SNF1-like kinase 2 (NUAK2, Homo sapiens, UniProt Q9H093) | 68 |
| Ephrin type-A receptor 3 (EPHA3, Homo sapiens, UniProt P29320) | 68 |
| Peripheral plasma membrane protein CASK (CASK, Homo sapiens, UniProt O14936) | 93 |
| Interleukin-1 receptor-associated kinase 4 (IRAK4, Homo sapiens, UniProt Q9NWZ3) | 76 |
| Proto-oncogene tyrosine-protein kinase ROS (ROS1, Homo sapiens, UniProt P08922) | 100 |
| Epidermal growth factor receptor (EGFR, Homo sapiens, UniProt P00533) | 97 |
| Serine/threonine-protein kinase pim-2 (PIM2, Homo sapiens, UniProt Q9P1W9) | 100 |
| Mitogen-activated protein kinase kinase kinase 10 (MAP3K10, Homo sapiens, UniProt Q02779) | 100 |
| Mitogen-activated protein kinase 15 (MAPK15, Homo sapiens, UniProt Q8TD08) | 72 |
| Mitogen-activated protein kinase kinase kinase 13 (MAP3K13, Homo sapiens, UniProt O43283) | 91 |
| Tyrosine-protein kinase Fyn (FYN, Homo sapiens, UniProt P06241) | 98 |
| Hormonally up-regulated neu tumor-associated kinase (HUNK, Homo sapiens, UniProt P57058) | 100 |
| Mitogen-activated protein kinase 10 (MAPK10, Homo sapiens, UniProt P53779) | 71 |
| Microtubule-associated serine/threonine-protein kinase 1 (MAST1, Homo sapiens, UniProt Q9Y2H9) | 100 |
| Serine/threonine-protein kinase SIK3 (SIK3, Homo sapiens, UniProt Q9Y2K2) | 63 |
| Mitogen-activated protein kinase 14 (MAPK14, Homo sapiens, UniProt Q16539) | 100 |
| Tyrosine-protein kinase ABL1, phosphorylated (ABL1, Homo sapiens, UniProt P00519, F317L) | 86 |
| Testis-specific serine/threonine-protein kinase 1 (TSSK1B, Homo sapiens, UniProt Q9BXA7) | 99 |
| Activin receptor type-1 (ACVR1, Homo sapiens, UniProt Q04771) | 96 |
| Serine/threonine-protein kinase WNK2 (WNK2, Homo sapiens, UniProt Q9Y3S1) | 63 |

Further values, each from its own experiment
| Structure (SMILES) | host | medium | route | dose | quantity | result |
| --- | --- | --- | --- | --- | --- | --- |
| O=C1CCC(N2Cc3cc(C4CCN(Cc5ccccc5)CC4)ccc3C2=O)C(=O)N1 (stereo not drawn) | male ICR mice | plasma | intravenous | 1.0 mg/kg | clearance | 51.3 mL/min/kg and 38.5 mL/min/kg |

Repeated from above (series 2):
| target | refers to | remaining binding [%] |
| --- | --- | --- |
| Serine/threonine-protein kinase WNK2 (WNK2, Homo sapiens, UniProt Q9Y3S1) |  | 66 |
| Ephrin type-A receptor 7 (EPHA7, Homo sapiens, UniProt Q15375) |  | 86 |
| Dual specificity protein kinase CLK2 (CLK2, Homo sapiens, UniProt P49760) |  | 56 |
